{"data": "Measurements collected from several papers", "note": "Lines come from different studies, so protocols differ. Numbers after ± are the reported error."}
{"Substance": "CNC(=O)CCCCC1CCSS1 (centres unmarked)", "target": "Lipoate--protein ligase 1 (LipL1, Plasmodium falciparum, UniProt Q8IEG9)", "test": "isothermal titration calorimetry", "endpoint": "Kd", "result": "38 µM"}
{"Substance": "C[C@@H](Oc1cc[n+]([O-])c2ccccc12)c1cn(-c2ccc(Cl)cc2)nn1", "target": "guaB (Vibrio cholerae, UniProt Q9KTW3)", "test": "binding, biolayer interferometry", "conditions": "25 °C, added: IMP 1 mM, NAD+", "endpoint": "Kd", "result": "> 5 µM"}
{"Substance": "Cc1cc(O)ccc1O", "target": "Probable HTH-type transcriptional regulator YhaJ, effector-binding domain (yhaJ, Escherichia coli, UniProt P67660, K231A)", "test": "microscale thermophoresis", "conditions": "pH 7.5", "endpoint": "Kd", "result": "28500 ± 5400 µM"}
{"Substance": "[3H]diprenorphine", "target": "Oprm1 (Mus musculus, UniProt P42866)", "test": "radioligand, radioligand saturation binding", "system": "wild type mice, locus coeruleus homogenate", "conditions": "pH 7.4", "endpoint": "Kd", "result": "0.00046 ± 8e-05 µM"}
{"Substance": "O=[N+]([O-])C1=CCCCC1", "target": "onr (Enterobacter cloacae, UniProt P71278)", "test": "stopped-flow", "conditions": "oxidative half-reaction", "endpoint": "Kd", "result": "6400 ± 700 µM"}
{"Substance": "neutrophil inhibitory factor", "target": "ITGAM (Homo sapiens, UniProt P11215)", "test": "binding, solid-phase binding", "endpoint": "Kd", "result": "0.02 µM"}
{"Substance": "CO[C@]12CC[C@@]3(C[C@@H]1C(C)(C)O)[C@H]1Cc4ccc(O)c5c4[C@@]3(CCN1CC1CC1)[C@H]2O5", "target": "Kappa-type opioid receptor (Lithobates pipiens, UniProt B0JCV9)", "test": "radioligand saturation binding", "system": "HEK-293T transfected", "conditions": "frog kappa opioid receptor", "endpoint": "Kd", "result": "0.0012 ± 0.0003 µM"}
{"Substance": "[N-]=[N+]=[N-]", "target": "Symerythrin (Cyanophora paradoxa, UniProt P48329)", "test": "UV-visible titration", "conditions": "azide binding", "endpoint": "Kd", "result": "~60000 µM"}
{"Substance": "CCN1CCN(Cc2ccc(NC(=O)c3ccc(C)c(/C=C/c4cnc5[nH]ccc5c4OC)c3)cc2C(F)(F)F)CC1", "target": "ALK (Homo sapiens, UniProt Q9UM73)", "test": "kinase-CDC37 interaction, inhibitor", "system": "human cells", "conditions": "5 µM", "scale": "baseline: vehicle", "endpoint": "log2 fold change", "result": 0.52}
{"Substance": "C[C@H](NC(=O)[C@H](CO)NC(=O)[C@@H](NC(=O)[C@@H](N)CO)[C@@H](C)O)C(=O)O", "target": "Dipeptide-binding protein DppA (Helicobacter pylori, UniProt O25069)", "test": "thermal shift", "conditions": "at Tm, zero heat capacity model", "endpoint": "Kd", "result": "34 ± 5 µM"}
{"Substance": "CNC(=O)Oc1ccc2c(c1)[C@]1(C)CCN(C)[C@@H]1N2C", "target": "Ace (Anopheles gambiae, UniProt Q869C3)", "test": "enzyme inhibition, inhibitor", "conditions": "added: acetylthiocholine 600 µM", "endpoint": "Kd", "result": "0.26 ± 0.02 µM"}
{"Substance": "[3H]diprenorphine", "target": "Oprm1 (Rattus norvegicus, UniProt P33535, K303E)", "test": "radioligand, saturation binding", "system": "N2a cell membranes", "conditions": "1 h, pH 7.4, room temperature, added: [3H]diprenorphine", "endpoint": "Kd", "result": "0.00042 ± 0.00011 µM"}
{"Substance": "[N-]=[N+]=[N-]", "target": "FDH ([Candida] boidinii, UniProt A0A0A1EQY0)", "test": "binding, isothermal titration calorimetry", "system": "Candida boidinii", "conditions": "added: NAD+", "endpoint": "Kd", "result": "0.043 ± 0.005 µM"}
{"Substance": "C[As+](C)(C)CCO", "target": "betP (Corynebacterium glutamicum, UniProt P54582, G153D)", "test": "binding, tryptophan fluorescence titration", "system": "Corynebacterium glutamicum, proteoliposomes", "conditions": "pH 7.5, first binding phase, added: 100 mM NaCl", "endpoint": "Kd", "result": "1300 ± 70 µM"}
{"Substance": "CC#C/C(=N\\OC[C@H]1COCCN1)c1ccc2ncnc(Nc3ccc(OCc4cccc(F)c4)c(Cl)c3)c2c1", "target": "EPHB1 (Homo sapiens, UniProt P54762)", "test": "kinase activity", "conditions": "10 µM", "endpoint": "inhibition", "result": "0.5%"}
{"Substance": "O=C(O)CCCC[C@@H]1CCSS1", "target": "Lipoate-protein ligase A1 (Listeria monocytogenes, UniProt A0A1D2IX29)", "test": "isothermal titration calorimetry", "endpoint": "Kd", "result": "1.9 µM"}
{"Substance": "N=C(NCCC[C@H](N)C(=O)O)NP(=O)(O)O", "target": "Protein-arginine kinase (mcsB, Geobacillus stearothermophilus, UniProt P0DMM5)", "test": "SPR", "endpoint": "Kd", "result": "850 ± 400 µM"}
{"note": "Repeated from above:"}
{"Substance": "C[C@H](NC(=O)[C@H](CO)NC(=O)[C@@H](NC(=O)[C@@H](N)CO)[C@@H](C)O)C(=O)O", "target": "Dipeptide-binding protein DppA (Helicobacter pylori, UniProt O25069)", "test": "thermal shift", "conditions": "at Tm, zero heat capacity model", "endpoint": "Kd", "result": "34 ± 5 µM"}
{"Substance": "CNC(=O)Oc1ccc2c(c1)[C@]1(C)CCN(C)[C@@H]1N2C", "target": "Ace (Anopheles gambiae, UniProt Q869C3)", "test": "enzyme inhibition, inhibitor", "conditions": "added: acetylthiocholine 600 µM", "endpoint": "Kd", "result": "0.26 ± 0.02 µM"}
